Measured values pooled from the literature.
± gives the spread as reported.

Compound | assay | test system | setting | Tmax [h]
C#C[C@]1(O)CC[C@H]2[C@@H]3CCC4=CC(=O)CC[C@@H]4[C@H]3CC[C@@]21CC |  | HIV-positive women, ritonavir arm, serum | oral, dose not given, steady state, median, together with: ritonavir | 2
CN1C(=CC=CC=CC2=[N+](CCCCCC(=O)NCCCC[C@H](NC(=O)[C@H](CCCCNC(=O)COCCOCCOCCNC(=O)[C@H](Cc3ccccc3)NC(=O)[C@H](CCCNC(=N)N)NC(=O)[C@@H]3CCCN3C(=O)[C@H](CC(N)=O)NC(=O)[C@@H]3CCCN3C(=O)[C@H](CO)NC(=O)[C@@H](N)CCCCN)NC(=O)COCCOCCOCCNC(=O)[C@H](CCC(=O)O)NC(=O)[C@H](CCCNC(=N)N)NC(=O)[C@@H]3CCCN3C(=O)[C@H](CCCCN)NC(=O)[C@H](Cc3c[nH]cn3)NC(=O)[C@H](CCCNC(=N)N)NC(=O)[C@@H](N)CCC(N)=O)C(N)=O)c3ccc4ccccc4c3C2(C)C)C(C)(C)c2c1ccc1ccccc21 |  | nude mice, OE33 xenograft, tumour | intravenous, 300 µM | 2
CNC(=O)c1ccc(-c2cnn3ccc(C(=O)N(C)c4ccc(Cl)c(C(=O)OC)c4)cc23)cc1 |  | beagle dogs, both sexes, plasma | oral, 50 mg/kg/day, day 1 | 0.917
c1cc([C@H]2CC[C@]3(CC2)OO[C@]2(O3)C3CC4CC(C3)CC2C4)ccc1OCCN1CCOCC1 |  | human, plasma | oral, 800 mg, single dose, fasted | 3
CCCCCOc1ccc(-c2cc(-c3ccc(C(=O)N[C@H]4C[C@@H](O)[C@@H](O)NC(=O)[C@@H]5[C@@H](O)[C@@H](C)CN5C(=O)[C@H]([C@H](O)CC(N)=O)NC(=O)[C@H]([C@H](O)[C@@H](O)c5ccc(O)c(OS(=O)(=O)O)c5)NC(=O)[C@@H]5C[C@@H](O)CN5C(=O)[C@H]([C@@H](C)O)NC4=O)cc3)no2)cc1 |  | young infants under 1000 g, plasma | intravenous infusion, 10 mg/kg/day, day 4, mean, 1 h infusion, repeat dosing | 1.1
O=c1[nH]c(Cc2ccccn2)nc2c1cnn2C1CCOCC1 |  | healthy men, extensive metabolizers, plasma | oral, 5 mg single dose, tablet, median | 0.63
Cc1cc(C(C#N)c2ccc(Cl)cc2)c(Cl)cc1NC(=O)c1cc(I)cc(I)c1O (stereo not shown) | HPLC, non-compartmental | Corriedale lambs, parasitized, plasma | oral, 10 mg/kg | 57.1 ± 8.16
CC[C@H](C)[C@H](NC(=O)[C@@H](N)CCCNC(=N)N)C(=O)N[C@H](C(=O)N1CCC[C@H]1C(=O)N[C@@H](C)C(N)=O)C(C)C |  | healthy volunteers, both sexes, plasma | intravenous infusion, 3.0 mg/kg daily, day 7, multiple ascending dose | 0.0717 ± 0.00833
CC[C@@]1(O)C(=O)OCc2c1cc1n(c2=O)Cc2cc3c(CN(C)C)c(O)ccc3nc2-1 |  | human, plasma | oral, 2.5 mg, multiple doses, patients | 1.99
O[C@H]1CCCN[C@@H]1CCCn1cnc2c(Cl)c(Cl)ccc21 |  | human, plasma | oral, 500 mg, single dose, healthy volunteers | 3.01

Some of these lines once more:
Compound | assay | test system | setting | Tmax [h]
CC[C@H](C)[C@H](NC(=O)[C@@H](N)CCCNC(=N)N)C(=O)N[C@H](C(=O)N1CCC[C@H]1C(=O)N[C@@H](C)C(N)=O)C(C)C |  | healthy volunteers, both sexes, plasma | intravenous infusion, 3.0 mg/kg daily, day 7, multiple ascending dose | 0.0717 ± 0.00833
